Measurements collected from several papers.
Each numbered part is a random draw from the data of one study; scales do not carry over between parts. Several values in a cell are separate wells, animals, samples, runs or records.

Sample 1
Cell line: normal organoid sample F
Technique: CellTiter-Glo
Host: human
Sample: normal-adjacent epithelium
Tested at: 0.1 µM
Baseline: DMSO
Structure (SMILES) | viability
O=C(c1ccc(F)cc1)N1CC(COc2ccc(Br)cc2)(C(=O)O)C1 | 81.5% and 127%
O=C(Nc1ccc(Oc2ccc(F)cc2)cc1)N1CCc2ncccc2[C@H]1c1ccc(F)cc1 | 126% and 71.9%
Cc1c[nH]c2nccc(Oc3c(F)cc(Nc4cc(Cl)nc(N)n4)cc3F)c12 | 137% and 89.8%
COCCOc1nc(-c2ccc(Cl)nc2)nc2c1CN(C(=O)c1ncn3ccccc13)CC2 | 81.2% and 93.5%
COc1ccc2cc(OCC3(C(=O)O)CN(C(=O)c4ccc(F)cc4)C3)ccc2c1 | 160% and 111%
CS(=O)(=O)NCC[C@H](NC(=O)c1cncc2c1cnn2-c1ccc(F)cc1)c1ccnc(S(C)(=O)=O)c1 | 146% and 152%
CC(C)CC(=O)N1CCc2nc(-c3ccc(Br)cc3)nc(N(C)Cc3ccccc3)c2C1 | 108% and 124%

Sample 2
Organism: Sarcocystis neurona
Read-out: parasite growth
Tested at: 10 µM
Compound | inhibition [%]
OCc1cc(C(O)CNCCCCCCOCCCCc2ccccc2)ccc1O (stereo not shown) | 27
Cl.NC1CCN(c2cccc(Cl)n2)CC1 | -19.5
COCCCOc1ccnc(C[S+]([O-])c2nc3ccccc3[nH]2)c1C (stereo not shown) | -36.4
NC1CCN(c2nc3c(cc2F)c(=O)c(C(=O)O)cn3-c2ccc(F)cc2F)C1 (stereo not shown) | 10.5
Cl.Nc1nc2ccc(OC(F)(F)F)cc2s1 | -260
O=c1c(-c2ccccc2)c1-c1ccccc1 | 60
O=C1c2cccc3c2[C@H](CCC3)CN1[C@@H]1CN2CCC1CC2 | 2.2
COc1cc([C@@H]2c3cc4c(cc3[C@H](O)[C@H]3COC(=O)[C@H]23)OCO4)cc(OC)c1OC | 31

Sample 3
Cell line: mouse MPNST tumor cells
Technique: high-content immunofluorescence imaging
Refers to: nuclear SOX9
Tested at: 10 µM
Time: 12 h
Notes: mean of 2 replicates
Baseline: DMSO control
Reading: higher = more nuclear SOX9
Structure (SMILES) | nuclear SOX9 intensity
c1ccc2[nH]c(-c3cscn3)nc2c1 | 105 % of DMSO and 107 % of DMSO
N#C[C@@H]1C[C@@H]2C[C@@H]2N1C(=O)[C@@H](N)C12CC3CC(CC(O)(C3)C1)C2 | 123 % of DMSO and 90.9 % of DMSO
O=[N+]([O-])c1ccc2nc(COCc3nc4ccc([N+](=O)[O-])cc4[nH]3)[nH]c2c1 | 84.3 % of DMSO
CCCCCCCC/C=C\CCCCCCCC(=O)NCc1ccc(O)c(OC)c1 | 91.8 % of DMSO
O=C(Nc1ccccc1)N[C@@H]1C[C@@H](C(=O)O)Nc2cc(Cl)cc(Cl)c21 | 90.6 % of DMSO
Cc1noc(C)c1Cn1cc(C#N)c2cc(Oc3ccc(NC(=O)[C@@H]4CCCN4)cc3)ccc21 | 109 % of DMSO
COC(=O)c1ccccc1NC(=O)c1ccc(F)cc1 | 106 % of DMSO

Sample 4
SMILES: CC(C)(C(=O)O)[C@H](NC(=O)Cc1cccc(I)c1)c1ccc2oc(=O)[nH]c2c1
Technique: Incucyte 3D growth
Tested at: 30 µM
Reading: higher = more growth
cell line | time | spheroid area
NCI-H358 | 144 h | 7.71e+06 a.u. and 7.8e+06 a.u. and 5.93e+06 a.u. and 5.44e+06 a.u. and 5.08e+06 a.u. and 5.18e+06 a.u.
NCI-H358 | 246 h | 9.35e+06 a.u. and 8.98e+06 a.u. and 7.12e+06 a.u. and 9.99e+06 a.u. and 1.1e+07 a.u. and 9.83e+06 a.u.
IPC-298 | 222 h | 3.14e+07 a.u. and 2.93e+07 a.u. and 2.72e+07 a.u. and 4.16e+07 a.u. and 2.45e+07 a.u. and 2.48e+07 a.u.
MEL-JUSO | 174.52 h | 1.69e+07 a.u. and 1.93e+07 a.u. and 1.7e+07 a.u. and 1.71e+07 a.u. and 1.95e+07 a.u. and 1.54e+07 a.u.
A375 | 258.52 h | 1.98e+08 a.u. and 1.67e+08 a.u. and 1.93e+08 a.u. and 1.74e+08 a.u. and 1.84e+08 a.u. and 1.73e+08 a.u.
A375 | 510.52 h | 1.52e+08 a.u. and 1.38e+08 a.u. and 1.75e+08 a.u. and 1.45e+08 a.u. and 1.44e+08 a.u.
KP-4 | 36 h | 1.35e+07 a.u. and 1.46e+07 a.u. and 1.36e+07 a.u. and 1.1e+07 a.u. and 1.3e+07 a.u. and 1.23e+07 a.u.
A375 | 282.52 h | 1.73e+08 a.u. and 1.84e+08 a.u. and 1.75e+08 a.u. and 2e+08 a.u. and 1.77e+08 a.u. and 2.02e+08 a.u.
IPC-298 | 288 h | 4.21e+07 a.u. and 3.7e+07 a.u. and 2.78e+07 a.u. and 3.4e+07 a.u. and 4.24e+07 a.u. and 2.74e+07 a.u.

A few entries again (sample 4):
cell line | time | spheroid area
A375 | 258.52 h | 1.98e+08 a.u. and 1.67e+08 a.u. and 1.93e+08 a.u. and 1.74e+08 a.u. and 1.84e+08 a.u. and 1.73e+08 a.u.
A375 | 510.52 h | 1.52e+08 a.u. and 1.38e+08 a.u. and 1.75e+08 a.u. and 1.45e+08 a.u. and 1.44e+08 a.u.
